Measured values pooled from the literature.
A part holds a random share of what one study measured.

Sample 1 — method: protein-binding microarray; form: double-stranded DNA, one strand shown; medium: in vitro; concentration: not given; reading: higher = stronger binding; quantity: E-score
Target: Max-binding protein MNT, bHLH-zipper, MAX partner unstated (MNT, Homo sapiens, UniProt Q99583, residues 220-300)
Notes: k-mer, scored over probes, only values ≥0.25
Target sequence (chain): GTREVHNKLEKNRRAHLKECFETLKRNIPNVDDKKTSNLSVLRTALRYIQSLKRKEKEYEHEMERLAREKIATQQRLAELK
Strand = CGCATTGC; value = 0.281
Strand = GCCACGCC; value = 0.355
Strand = TGGTCACA; value = 0.251
Strand = ACGCGGTC; value = 0.335
Strand = ACTGCATG; value = 0.311
Strand = CACGGGGG; value = 0.384
Strand = CCGCCCCG; value = 0.355

Sample 2 — method: protein binding microarray; form: double-stranded DNA, one strand shown; medium: in vitro; concentration: not given; relative to: not given; reading: higher = stronger binding; quantity: E-score
Target: Histone acetyltransferase KAT6A, winged helix 1, GST fusion (KAT6A, Homo sapiens, UniProt Q92794, residues 1-85)
Notes: 8-mer, flanks averaged, mean of 2 arrays, mostly near background
Construct (chain): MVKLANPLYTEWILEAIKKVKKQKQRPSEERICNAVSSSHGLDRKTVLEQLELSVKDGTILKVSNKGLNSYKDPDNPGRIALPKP
Strand = CCGGTGCA; value = 0.196
Strand = CGCGTAGA; value = 0.232
Strand = CCCCCAAA; value = -0.261
Strand = ATCAGGCA; value = -0.262
Strand = CCTAGTGA; value = -0.157
Strand = GTCGACAA; value = -0.0323
Strand = CAGCTAGG; value = -0.255
Strand = CCTACCAA; value = -0.207
Strand = GACCAATC; value = -0.154
Strand = ACGACGCG; value = 0.256

Sample 3 — method: protein-binding microarray; form: double-stranded DNA, one strand shown; medium: in vitro; concentration: 2540 nM top; notes: 60-bp whole probe; together with: salmon DNA 0.4 mg/ml; relative to: random background probes; reading: higher = stronger binding; quantity: fitted relative affinity; constant ends, left off below: GCCTAGCAC … GTCTTGATTCGCTTGACGCTGCTG
Target: Interferon regulatory factor 3, full length, phosphomimetic (IRF3, Homo sapiens, UniProt Q14653, residues 1-427, S386D/S396D/S398D/S402D/T404D/S405D)
Target sequence (chain): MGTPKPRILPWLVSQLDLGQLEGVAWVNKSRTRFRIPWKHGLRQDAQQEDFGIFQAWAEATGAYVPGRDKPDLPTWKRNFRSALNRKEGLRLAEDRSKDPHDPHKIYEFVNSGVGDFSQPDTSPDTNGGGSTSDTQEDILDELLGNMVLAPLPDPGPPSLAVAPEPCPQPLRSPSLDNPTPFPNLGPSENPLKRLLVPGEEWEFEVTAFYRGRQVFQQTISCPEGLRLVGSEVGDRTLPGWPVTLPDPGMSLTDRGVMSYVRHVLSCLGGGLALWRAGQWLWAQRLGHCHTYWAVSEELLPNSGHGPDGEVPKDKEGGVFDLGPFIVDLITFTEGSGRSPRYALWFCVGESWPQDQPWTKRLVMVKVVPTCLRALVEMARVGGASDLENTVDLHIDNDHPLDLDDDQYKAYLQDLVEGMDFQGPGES
Strand = TTTCCTCTTTCTTTGCTTCAGTGCTAG; value = 5.85 z-score
Strand = TTAGGTATCGGTCTCGGTTTGTGCTAG; value = 5.07 z-score
Strand = GACGGACTGGGGTTTCGGGAGGTGCTA; value = 0.119 z-score
Strand = TTAGGTATCGACTTTCGGTCAGTGCTA; value = 1.28 z-score
Strand = CTGGTTTTACTTTCTATCTCGTGCTAG; value = 5.3 z-score
Strand = TCAGAATTTACTTTCTAACTGTGCTAG; value = 1.71 z-score
Strand = TTGGTTTTCTCTATTGCTTTGTGCTAG; value = 0.907 z-score
Strand = GGCGGTTTCGGACTGGGGACGTGCTAG; value = 4.72 z-score
Strand = TCAAGAATGTTTTTCATACTGTGCTAG; value = 0.156 z-score

Other studies, line by line
Molecule = PhoQ, residues 284 288 289 292 302 303 NLCILV; target = PhoP, residues 12 14 15 18 19 QWHVF (Escherichia coli, UniProt P23836); assay = Sort-seq, refers to: YFP reporter; test system = E. coli; setting = PhoQ-PhoP variant library, together with: 10 µM Mg2+; scale = relative to: high Mg2+ state, higher = stronger signaling; quantity = fold induction; value = 24

For quick reference, copied from above (sample 1):
Strand = TGGTCACA; value = 0.251
Strand = ACGCGGTC; value = 0.335
